{"data": "Measurements gathered from unrelated publications", "note": "A part holds a random share of what one study measured."}
{"data": "Sample 1", "target": "Histone acetyltransferase KAT6A, winged helix 2, GST fusion (KAT6A, Homo sapiens, UniProt Q92794, residues 85-181)", "technique": "protein binding microarray", "form": "double-stranded DNA, one strand shown", "medium": "in vitro", "tested at": "not given", "notes": "8-mer, flanks averaged, mean of 2 arrays, mostly near background", "relative to": "not given", "reading": "higher = stronger binding", "Residues (chain)": "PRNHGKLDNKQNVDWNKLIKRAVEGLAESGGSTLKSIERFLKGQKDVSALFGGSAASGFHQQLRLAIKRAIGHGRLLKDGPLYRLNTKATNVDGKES"}
{"Sequence": "ATGCGACG", "E-score": 0.0726}
{"Sequence": "ATGAGTTA", "E-score": -0.218}
{"Sequence": "AAAGCCGA", "E-score": -0.179}
{"Sequence": "GCGAGCCC", "E-score": 0.0325}
{"Sequence": "CAGGGGAA", "E-score": 0.0437}
{"Sequence": "ACGTAAAA", "E-score": -0.0516}
{"data": "Sample 2", "target": "Sal-like protein 4, full length isoform A (SALL4, Homo sapiens, UniProt Q9UJQ4, residues 1-1053)", "technique": "universal PBM", "form": "double-stranded DNA, one strand shown", "medium": "in vitro", "tested at": "600 nM", "notes": "8-mer, flanks averaged, mean of replicates", "reading": "higher = stronger binding", "sequence of UniProt Q9UJQ4 (whole entry, looked up)": "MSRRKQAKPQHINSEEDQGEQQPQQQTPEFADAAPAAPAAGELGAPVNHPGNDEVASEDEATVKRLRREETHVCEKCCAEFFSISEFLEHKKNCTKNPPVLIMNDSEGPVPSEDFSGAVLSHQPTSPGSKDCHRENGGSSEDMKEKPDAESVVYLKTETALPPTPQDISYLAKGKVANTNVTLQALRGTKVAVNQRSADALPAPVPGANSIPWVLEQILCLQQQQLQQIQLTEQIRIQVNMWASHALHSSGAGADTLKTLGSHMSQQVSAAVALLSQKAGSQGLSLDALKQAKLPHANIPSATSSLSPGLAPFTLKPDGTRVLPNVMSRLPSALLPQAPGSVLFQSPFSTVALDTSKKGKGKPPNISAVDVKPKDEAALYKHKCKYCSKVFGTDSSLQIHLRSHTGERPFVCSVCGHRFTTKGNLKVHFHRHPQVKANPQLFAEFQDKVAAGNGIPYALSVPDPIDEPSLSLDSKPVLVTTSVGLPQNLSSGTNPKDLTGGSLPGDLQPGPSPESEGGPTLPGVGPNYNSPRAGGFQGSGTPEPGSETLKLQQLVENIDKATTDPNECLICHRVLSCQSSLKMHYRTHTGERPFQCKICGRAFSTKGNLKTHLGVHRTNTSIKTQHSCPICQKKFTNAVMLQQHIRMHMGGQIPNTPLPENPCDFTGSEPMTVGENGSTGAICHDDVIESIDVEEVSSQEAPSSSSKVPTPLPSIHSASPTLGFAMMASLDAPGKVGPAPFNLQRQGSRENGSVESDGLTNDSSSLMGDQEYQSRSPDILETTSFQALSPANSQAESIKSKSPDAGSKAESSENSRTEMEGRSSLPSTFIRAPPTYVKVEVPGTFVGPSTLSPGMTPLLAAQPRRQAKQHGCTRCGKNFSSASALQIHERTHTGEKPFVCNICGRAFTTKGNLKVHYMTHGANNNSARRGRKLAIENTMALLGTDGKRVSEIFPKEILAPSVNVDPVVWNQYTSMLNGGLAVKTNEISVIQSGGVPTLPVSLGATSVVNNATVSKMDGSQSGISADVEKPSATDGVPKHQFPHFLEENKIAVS"}
{"Sequence": "AGTCGCCG", "E-score": -0.286}
{"Sequence": "AAAGCTCG", "E-score": -0.141}
{"Sequence": "CGGGTGCC", "E-score": -0.347}
{"Sequence": "CCGTATTC", "E-score": 0.0359}
{"data": "Sample 3", "Substance": "PhoQ, residues 284 288 289 292 302 303 GASLAW", "technique": "Sort-seq", "measured": "YFP reporter", "medium": "E. coli", "notes": "PhoQ-PhoP variant library", "added": "10 µM Mg2+", "relative to": "high Mg2+ state", "reading": "higher = stronger signaling"}
{"target": "PhoP, residues 12 14 15 18 19 QYFSL (Escherichia coli, UniProt P23836)", "fold induction": 1.76}
{"target": "PhoP, residues 12 14 15 18 19 NYFRM (Escherichia coli, UniProt P23836)", "fold induction": 9.25}
{"target": "PhoP, residues 12 14 15 18 19 TQALL (Escherichia coli, UniProt P23836)", "fold induction": 11.1}
{"data": "Sample 4", "target": "Myc proto-oncogene protein, bHLH-zipper, MAX partner unstated (MYC, Homo sapiens, UniProt P01106, residues 368-449)", "technique": "protein-binding microarray", "form": "double-stranded DNA, one strand shown", "medium": "in vitro", "tested at": "not given", "notes": "k-mer, scored over probes, only values ≥0.25", "reading": "higher = stronger binding", "sequence of UniProt P01106 (368-449, looked up)": "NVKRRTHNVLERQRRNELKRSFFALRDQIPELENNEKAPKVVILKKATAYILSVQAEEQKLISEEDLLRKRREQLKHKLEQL"}
{"Sequence": "ACACATTG", "E-score": 0.288}
{"Sequence": "AACACGCA", "E-score": 0.388}
{"Sequence": "CCCCGCCG", "E-score": 0.32}
{"Sequence": "AGTGCATG", "E-score": 0.323}
{"Sequence": "ATAGCGTG", "E-score": 0.364}
{"note": "For quick reference, copied from above (sample 1):"}
{"Sequence": "GCGAGCCC", "E-score": 0.0325}
{"Sequence": "CAGGGGAA", "E-score": 0.0437}
